Results pooled from the literature.
Every numbered part comes from another study and shows a few of its results, in no order.
Sequence of UniProt Q96P11 (1-109, looked up): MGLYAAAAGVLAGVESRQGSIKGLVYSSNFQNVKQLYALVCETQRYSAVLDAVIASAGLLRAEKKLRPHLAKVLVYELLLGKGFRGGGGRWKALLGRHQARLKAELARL

Set 1
Target: Interferon regulatory factor 5, full length, phosphomimetic (IRF5, Homo sapiens, UniProt Q13568-2, residues 1-514, S451D/S453D/S456D/S462D)
Method: protein-binding microarray
Molecule type: double-stranded DNA, one strand shown
Medium: in vitro
Tested at: 940 nM top
Notes: 60-bp whole probe
Together with: salmon DNA 0.4 mg/ml
Relative to: random background probes
Direction: higher = stronger binding
Quantity: fitted relative affinity
Constant ends, left off below: GCCTAGCAC … GTCTTGATTCGCTTGACGCTGCTG
TTAGGTAGCCTTATCCTTTAGTGCTAG: -0.435 z-score
GACGGATCCCTTTTCCTGACGTGCTAG: 0.255 z-score
AACGGTTTCGACTATCGGGACGTGCTA: 8.65 z-score
GACGAACTGGGGTATCGGGACGTGCTA: 0.688 z-score
TGATAAATCTTTGTTGGAGGGGTGCTA: 0.543 z-score

Set 2
Target: Protein max, full length (MAX, Homo sapiens, UniProt P61244-2, residues 1-151)
Method: protein-binding microarray
Molecule type: double-stranded DNA, one strand shown
Medium: in vitro
Tested at: not given
Notes: k-mer, scored over probes, only values ≥0.25
Direction: higher = stronger binding
Quantity: E-score
CGTGGTTC: 0.359
GACATGCA: 0.275
TGCCCACA: 0.274
CGCTCACG: 0.294
ACTCATGC: 0.337

Other studies, line by line
AAAAAAAA (biotin)
signal ratio (28S rRNA (cytosine-C(5))-methyltransferase, N-terminal fragment (NSUN5, Homo sapiens, UniProt Q96P11, residues 1-109); protein domain microarray; RNA, in vitro; not given, poly(A) 8-mer RNA, whole probe, immobilized GST-fusion domains, most near background; relative to: GST loading signal, higher = stronger binding): 0.96

PhoQ, residues 284 288 289 292 302 303 QWGLFV
fold induction (PhoP, residues 12 14 15 18 19 IQFRS (Escherichia coli, UniProt P23836); Sort-seq, item: YFP reporter; E. coli; PhoQ-PhoP variant library, together with: 10 µM Mg2+; relative to: high Mg2+ state, higher = stronger signaling): 2.68
